Assay results pooled from the literature.
Compare with care: the assays were run in different laboratories.

CC(C)c1ccc(N(C)c2ccc3c(c2)OCC[C@H]3CNc2cnccc2C(=O)O)cc1
IC50 (LS-411N; cell growth or viability, ATP luminescence; 7 days): 0.0167 µM

CNS(=O)(=O)Nc1nccc(Cc2c(C)c3ccc(Oc4ncccc4F)cc3oc2=O)c1F
IC50 (Hs 683; cell viability; 7 days): > 1 µM

NC(=O)c1ccc(-c2ccccc2Cl)c2c3c([nH]c12)CCC(N)C3 (stereo not shown)
IC50 (SGC-7901; cell growth or viability; 96 h): 0.0399 µM

CN(C)C(=O)c1ccnc(N2Cc3cn(Cc4cc(F)cc(F)c4)nc3C2)n1
IC50 (HEK293 expressing GluA1 and GluA2; glutamate excitotoxic cell death, CellTox Green; added: glutamate): 0.024 µM

O=C(NCCOCCOCCNC(=O)c1cc2ccccc2c2ccccc12)c1cc(C(=O)N2CCNCCNCCNCC2)c(O)c(C(=O)N2CCNCCNCCNCC2)c1
IC50 (2C6 normal pancreas; cell viability, MTT; 24 h): > 1000 µM

CN1CCC(N[C@H]2CCc3[nH]c4c(C(N)=O)ccc(-c5ccccc5Cl)c4c3C2)CC1
IC50 (A549 parental; cell proliferation): 2.27 µM

Fc1ccc(Cn2ncc3c2CN(c2nccc(NC4CC4)n2)C3)cc1
IC50 (HEK293 expressing GluA1 and GluA2; glutamate excitotoxic cell death, CellTox Green; added: glutamate): 4 µM

CCOc1cncc(-c2ccc(NC(=O)C3(c4ccnc(NS(=O)(=O)C5CC5)n4)CCOCC3)nc2)n1
IC50 (HEC-1-A; cell proliferation, CellTiter-Glo; 72 h): 10 µM

Cn1ncc(-c2ccc3c(=O)[nH]nc(CN)c3c2)c1-c1c(F)c(Cl)cc(OC2CC2)c1C#N
IC50 (SW900; cell viability, inhibitor, CellTiter-Glo; 120 h, baseline-subtracted): 0.15 µM

COCCNC(=O)c1cccc(N2Cc3cn(Cc4ccc(F)cc4)nc3C2)c1
IC50 (HEK293 expressing GluA1 and GluA2; glutamate excitotoxic cell death, CellTox Green; added: glutamate): 0.976 µM

A few entries again:
O=C(NCCOCCOCCNC(=O)c1cc2ccccc2c2ccccc12)c1cc(C(=O)N2CCNCCNCCNCC2)c(O)c(C(=O)N2CCNCCNCCNCC2)c1
IC50 (2C6 normal pancreas; cell viability, MTT; 24 h): > 1000 µM
